Published values pooled from the literature.
Lines come from different studies, so protocols differ. ± marks the error that the study gave.
MAPK8: Mitogen-activated protein kinase 8 (MAPK8, Homo sapiens, UniProt P45983)
Pick1 PDZ domain: PRKCA-binding protein, PDZ domain (Pick1, Rattus norvegicus, UniProt Q9EP80)
MAPK14: Mitogen-activated protein kinase 14 (MAPK14, Homo sapiens, UniProt Q16539)

Chains of the proteins cited; added tags and fusions are not shown. Lines headed by an entry give the natural chain unless they say otherwise; changes in a name come on top. Residues count along the entry.
UniProt P45983, whole entry: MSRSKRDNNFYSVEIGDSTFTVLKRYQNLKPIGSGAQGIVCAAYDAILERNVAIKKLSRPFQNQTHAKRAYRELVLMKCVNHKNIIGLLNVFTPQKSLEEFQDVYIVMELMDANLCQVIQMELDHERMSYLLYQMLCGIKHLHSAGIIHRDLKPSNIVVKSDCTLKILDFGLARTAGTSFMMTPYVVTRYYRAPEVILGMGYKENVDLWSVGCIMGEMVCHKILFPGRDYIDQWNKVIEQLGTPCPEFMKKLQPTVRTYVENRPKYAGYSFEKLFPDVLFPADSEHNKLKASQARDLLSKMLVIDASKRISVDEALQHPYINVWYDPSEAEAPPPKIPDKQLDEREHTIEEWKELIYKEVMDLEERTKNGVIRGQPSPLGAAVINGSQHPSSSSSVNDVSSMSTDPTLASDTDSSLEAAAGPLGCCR
UniProt P45983, 1-384 isoform 3: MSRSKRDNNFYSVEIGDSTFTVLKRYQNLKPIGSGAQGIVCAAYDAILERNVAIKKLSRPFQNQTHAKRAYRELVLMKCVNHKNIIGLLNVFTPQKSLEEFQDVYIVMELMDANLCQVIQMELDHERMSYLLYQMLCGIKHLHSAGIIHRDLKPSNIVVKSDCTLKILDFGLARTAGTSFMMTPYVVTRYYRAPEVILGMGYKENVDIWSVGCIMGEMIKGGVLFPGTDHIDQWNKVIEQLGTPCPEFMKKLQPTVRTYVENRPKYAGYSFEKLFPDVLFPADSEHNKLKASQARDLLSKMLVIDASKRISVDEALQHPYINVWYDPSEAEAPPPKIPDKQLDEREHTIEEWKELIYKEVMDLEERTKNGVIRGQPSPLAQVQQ
UniProt Q9EP80, whole entry: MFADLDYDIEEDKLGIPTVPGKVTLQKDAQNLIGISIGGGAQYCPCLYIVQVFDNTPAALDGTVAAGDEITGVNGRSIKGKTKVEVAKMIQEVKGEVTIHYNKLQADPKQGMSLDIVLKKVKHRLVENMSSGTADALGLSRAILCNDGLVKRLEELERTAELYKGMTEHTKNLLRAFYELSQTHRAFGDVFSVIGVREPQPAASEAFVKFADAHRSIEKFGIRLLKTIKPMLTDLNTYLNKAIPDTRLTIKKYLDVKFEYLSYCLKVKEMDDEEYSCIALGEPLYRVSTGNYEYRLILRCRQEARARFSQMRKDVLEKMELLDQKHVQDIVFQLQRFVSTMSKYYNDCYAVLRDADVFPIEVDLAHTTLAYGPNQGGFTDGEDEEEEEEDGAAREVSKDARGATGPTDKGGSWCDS
UniProt Q16539, whole entry: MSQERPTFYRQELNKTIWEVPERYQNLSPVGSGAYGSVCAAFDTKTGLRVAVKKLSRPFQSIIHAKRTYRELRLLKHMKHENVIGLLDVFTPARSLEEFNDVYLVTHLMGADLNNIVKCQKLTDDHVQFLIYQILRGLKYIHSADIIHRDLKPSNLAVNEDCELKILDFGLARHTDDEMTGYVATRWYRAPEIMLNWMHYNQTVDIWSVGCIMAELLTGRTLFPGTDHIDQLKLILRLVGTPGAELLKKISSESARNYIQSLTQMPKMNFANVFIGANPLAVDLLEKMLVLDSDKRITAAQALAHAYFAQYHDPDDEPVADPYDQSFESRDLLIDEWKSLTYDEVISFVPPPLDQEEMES
UniProt Q9R0C9, whole entry: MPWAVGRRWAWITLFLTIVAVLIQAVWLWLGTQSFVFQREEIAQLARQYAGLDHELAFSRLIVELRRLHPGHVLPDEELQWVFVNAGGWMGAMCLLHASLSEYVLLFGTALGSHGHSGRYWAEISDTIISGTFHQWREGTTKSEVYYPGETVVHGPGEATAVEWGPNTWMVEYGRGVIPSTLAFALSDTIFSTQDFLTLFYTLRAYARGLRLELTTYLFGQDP
UniProt Q9H244, whole entry: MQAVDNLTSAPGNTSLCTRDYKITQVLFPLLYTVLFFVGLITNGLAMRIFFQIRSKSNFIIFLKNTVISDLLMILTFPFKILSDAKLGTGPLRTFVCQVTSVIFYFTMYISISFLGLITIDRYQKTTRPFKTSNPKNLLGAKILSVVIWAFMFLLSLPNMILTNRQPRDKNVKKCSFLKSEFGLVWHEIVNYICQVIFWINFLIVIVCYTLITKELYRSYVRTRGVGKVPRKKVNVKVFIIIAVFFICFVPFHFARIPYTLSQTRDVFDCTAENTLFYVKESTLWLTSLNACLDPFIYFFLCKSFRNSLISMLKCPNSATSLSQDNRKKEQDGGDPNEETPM
UniProt Q04609, whole entry: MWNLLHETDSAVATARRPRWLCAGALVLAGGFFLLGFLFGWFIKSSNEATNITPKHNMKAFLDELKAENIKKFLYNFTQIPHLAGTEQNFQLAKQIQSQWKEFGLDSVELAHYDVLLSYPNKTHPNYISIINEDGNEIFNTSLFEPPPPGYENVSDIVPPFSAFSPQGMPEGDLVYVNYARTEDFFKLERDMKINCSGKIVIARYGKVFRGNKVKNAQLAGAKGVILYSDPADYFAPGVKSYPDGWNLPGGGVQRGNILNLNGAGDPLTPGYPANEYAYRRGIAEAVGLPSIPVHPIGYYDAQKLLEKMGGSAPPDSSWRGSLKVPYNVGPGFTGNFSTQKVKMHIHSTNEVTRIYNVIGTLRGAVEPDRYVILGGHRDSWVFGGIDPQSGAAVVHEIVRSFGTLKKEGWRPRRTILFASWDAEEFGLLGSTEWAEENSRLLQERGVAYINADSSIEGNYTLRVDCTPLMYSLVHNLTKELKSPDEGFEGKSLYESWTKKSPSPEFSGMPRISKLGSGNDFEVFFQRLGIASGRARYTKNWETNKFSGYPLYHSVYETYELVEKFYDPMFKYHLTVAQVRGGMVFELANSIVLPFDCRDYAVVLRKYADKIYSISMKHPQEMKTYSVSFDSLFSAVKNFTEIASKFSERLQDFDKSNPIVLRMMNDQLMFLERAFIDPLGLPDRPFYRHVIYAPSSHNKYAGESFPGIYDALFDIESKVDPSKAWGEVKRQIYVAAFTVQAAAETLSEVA
UniProt Q9NRA0, whole entry: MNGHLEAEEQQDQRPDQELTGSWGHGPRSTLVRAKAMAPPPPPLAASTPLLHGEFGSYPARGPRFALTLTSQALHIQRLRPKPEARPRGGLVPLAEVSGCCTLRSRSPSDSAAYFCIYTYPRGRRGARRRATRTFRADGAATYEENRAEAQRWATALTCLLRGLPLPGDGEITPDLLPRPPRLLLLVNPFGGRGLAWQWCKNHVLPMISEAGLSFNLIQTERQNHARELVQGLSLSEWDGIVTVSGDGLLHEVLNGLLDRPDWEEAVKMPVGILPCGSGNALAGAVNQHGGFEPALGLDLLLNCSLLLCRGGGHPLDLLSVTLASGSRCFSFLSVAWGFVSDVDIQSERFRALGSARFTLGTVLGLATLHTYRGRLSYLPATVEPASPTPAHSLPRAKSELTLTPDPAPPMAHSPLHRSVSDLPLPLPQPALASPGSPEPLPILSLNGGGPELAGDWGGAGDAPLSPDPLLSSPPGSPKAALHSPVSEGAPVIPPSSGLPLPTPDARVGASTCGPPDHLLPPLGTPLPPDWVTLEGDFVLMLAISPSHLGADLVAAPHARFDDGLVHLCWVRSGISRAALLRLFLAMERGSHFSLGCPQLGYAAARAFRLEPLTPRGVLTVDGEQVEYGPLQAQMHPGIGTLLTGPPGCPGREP
UniProt P13569, whole entry: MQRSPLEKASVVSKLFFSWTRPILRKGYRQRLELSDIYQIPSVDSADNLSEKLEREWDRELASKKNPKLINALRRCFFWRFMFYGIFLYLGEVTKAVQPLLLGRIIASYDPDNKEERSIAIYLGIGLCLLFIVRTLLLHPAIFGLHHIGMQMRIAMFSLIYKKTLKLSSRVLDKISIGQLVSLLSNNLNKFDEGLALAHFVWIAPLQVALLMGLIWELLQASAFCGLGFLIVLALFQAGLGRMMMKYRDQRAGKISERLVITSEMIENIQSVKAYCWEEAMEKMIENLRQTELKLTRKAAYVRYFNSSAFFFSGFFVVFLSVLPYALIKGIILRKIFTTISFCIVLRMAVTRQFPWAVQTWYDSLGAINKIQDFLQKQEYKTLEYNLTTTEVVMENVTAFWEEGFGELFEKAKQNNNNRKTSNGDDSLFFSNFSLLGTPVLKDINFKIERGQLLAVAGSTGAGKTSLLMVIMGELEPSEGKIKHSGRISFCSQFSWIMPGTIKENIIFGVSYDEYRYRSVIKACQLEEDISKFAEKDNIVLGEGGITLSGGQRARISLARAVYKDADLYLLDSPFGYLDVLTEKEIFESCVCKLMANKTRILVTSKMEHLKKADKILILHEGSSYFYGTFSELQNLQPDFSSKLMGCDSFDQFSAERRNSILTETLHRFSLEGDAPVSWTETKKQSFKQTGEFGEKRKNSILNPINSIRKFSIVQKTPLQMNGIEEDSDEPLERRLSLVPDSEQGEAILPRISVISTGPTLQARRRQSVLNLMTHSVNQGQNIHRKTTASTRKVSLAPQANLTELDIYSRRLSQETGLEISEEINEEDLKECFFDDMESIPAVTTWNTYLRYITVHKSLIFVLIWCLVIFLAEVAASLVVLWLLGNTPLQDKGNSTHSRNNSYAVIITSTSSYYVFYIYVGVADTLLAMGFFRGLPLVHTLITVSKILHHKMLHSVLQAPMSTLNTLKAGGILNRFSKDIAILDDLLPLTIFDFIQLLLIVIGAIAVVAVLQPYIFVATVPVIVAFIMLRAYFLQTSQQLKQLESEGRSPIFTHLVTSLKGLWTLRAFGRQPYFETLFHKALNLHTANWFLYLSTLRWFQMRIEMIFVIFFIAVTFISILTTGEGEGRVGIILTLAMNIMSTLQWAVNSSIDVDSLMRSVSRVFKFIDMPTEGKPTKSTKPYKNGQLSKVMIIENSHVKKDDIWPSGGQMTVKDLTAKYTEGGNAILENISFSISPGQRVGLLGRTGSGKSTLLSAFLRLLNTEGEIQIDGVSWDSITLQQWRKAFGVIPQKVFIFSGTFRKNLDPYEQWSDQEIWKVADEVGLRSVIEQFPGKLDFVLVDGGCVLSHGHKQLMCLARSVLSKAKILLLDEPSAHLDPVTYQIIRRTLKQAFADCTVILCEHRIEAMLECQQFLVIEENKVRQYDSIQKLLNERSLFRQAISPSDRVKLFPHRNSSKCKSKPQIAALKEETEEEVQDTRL
UniProt P18825, whole entry: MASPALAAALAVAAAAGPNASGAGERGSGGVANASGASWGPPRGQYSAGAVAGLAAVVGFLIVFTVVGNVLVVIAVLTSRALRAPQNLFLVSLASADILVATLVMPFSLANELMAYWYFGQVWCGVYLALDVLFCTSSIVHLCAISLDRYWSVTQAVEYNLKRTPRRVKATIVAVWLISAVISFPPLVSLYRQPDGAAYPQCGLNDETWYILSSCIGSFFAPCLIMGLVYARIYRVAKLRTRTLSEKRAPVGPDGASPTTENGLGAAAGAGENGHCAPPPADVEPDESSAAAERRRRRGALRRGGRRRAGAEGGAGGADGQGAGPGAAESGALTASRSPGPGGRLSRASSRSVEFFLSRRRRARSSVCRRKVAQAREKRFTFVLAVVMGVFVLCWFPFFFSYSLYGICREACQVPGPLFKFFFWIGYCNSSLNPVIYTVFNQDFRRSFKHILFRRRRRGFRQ
UniProt Q07440, whole entry P104K/C113S, looked up: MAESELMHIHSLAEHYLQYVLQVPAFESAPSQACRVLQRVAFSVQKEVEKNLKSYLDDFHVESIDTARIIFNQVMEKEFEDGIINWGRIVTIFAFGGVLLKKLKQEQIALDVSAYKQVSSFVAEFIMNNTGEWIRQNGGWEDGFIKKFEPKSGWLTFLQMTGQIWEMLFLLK
UniProt P22756, 31-920 isoform 4 limits assumed: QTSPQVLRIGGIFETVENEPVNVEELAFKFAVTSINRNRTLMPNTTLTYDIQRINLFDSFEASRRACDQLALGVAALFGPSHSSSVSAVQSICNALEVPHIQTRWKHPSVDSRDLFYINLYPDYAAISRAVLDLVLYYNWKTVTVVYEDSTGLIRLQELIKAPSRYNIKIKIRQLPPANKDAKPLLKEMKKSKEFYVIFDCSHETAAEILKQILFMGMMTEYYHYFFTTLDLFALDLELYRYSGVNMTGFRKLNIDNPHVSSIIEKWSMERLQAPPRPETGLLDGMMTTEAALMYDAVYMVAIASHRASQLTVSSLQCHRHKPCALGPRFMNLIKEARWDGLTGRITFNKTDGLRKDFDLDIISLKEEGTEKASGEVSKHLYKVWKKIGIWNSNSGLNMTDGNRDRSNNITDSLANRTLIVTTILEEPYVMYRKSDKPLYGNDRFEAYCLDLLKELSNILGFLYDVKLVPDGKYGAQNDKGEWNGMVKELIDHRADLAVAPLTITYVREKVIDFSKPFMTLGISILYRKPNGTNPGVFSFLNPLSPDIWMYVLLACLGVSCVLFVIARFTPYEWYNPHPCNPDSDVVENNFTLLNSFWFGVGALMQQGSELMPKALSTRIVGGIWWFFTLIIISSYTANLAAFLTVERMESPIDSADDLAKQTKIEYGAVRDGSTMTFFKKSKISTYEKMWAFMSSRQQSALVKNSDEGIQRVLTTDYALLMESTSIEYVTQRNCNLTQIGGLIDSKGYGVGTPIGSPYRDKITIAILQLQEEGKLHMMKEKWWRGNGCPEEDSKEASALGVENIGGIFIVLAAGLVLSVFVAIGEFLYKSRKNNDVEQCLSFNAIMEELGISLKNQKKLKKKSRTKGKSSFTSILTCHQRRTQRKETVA

Structure (SMILES)	target or system	assay	system	setting	how to read	measurement	value
COc1cc([C@@H]2c3cc4c(cc3[C@H](CC(C)C)[C@H]3COC(=O)[C@H]23)OCO4)cc(OC)c1OC	Leishmania infantum	iRFP fluorescence	mouse splenocytes infected, amastigote, iRFP, ex vivo splenic explant	48 h		EC50	15600 ± 100 nM
Cc1cc(SCc2sc(-c3cc4ccccc4o3)nc2C)ccc1OCC(=O)O	HEK293T			18 h		CC50	> 80000 nM
FC(F)(F)c1ccc2c(c1)CCC/C2=N\OCCCN1CCCCC1	Sigma non-opioid intracellular receptor 1 (Sigmar1, Rattus norvegicus, UniProt Q9R0C9)	radioligand binding	rat			Ki	86.2 ± 2.04 nM
CCCc1cc2c(N3CCn4c(nnc4C(F)(F)F)C3)nc(OCCF)nc2s1 [isotope labelled]	P2Y purinoceptor 12 (P2RY12, Homo sapiens, UniProt Q9H244)	binding, antagonist, competitive displacement	human, membranes			Ki	4.41 ± 2.3 nM
COC(=O)[C@@]1(C)C=C(C(=O)Nc2cccc(C(=O)NC34CC(Nc5nccc(-c6cccnc6)n5)(C3)C4)c2)C(=O)CC1	MAPK8	kinase activity, inhibitor		4.938 µM, unit not given, with: 10 mM GSH	reference: DMSO	remaining activity	0.0419
CC[N+]1=C(C=CC=CC=CC=C2N(CCCCCC(=O)NCCOCCOCC(=O)NCCCC[C@H](NC(=O)N[C@@H](CCC(=O)O)C(=O)O)C(=O)O)c3ccc(S(=O)(=O)O)cc3C2(C)C)C(C)(C)c2cc(S(=O)(=O)[O-])ccc21	Glutamate carboxypeptidase 2 (FOLH1, Homo sapiens, UniProt Q04609)	enzyme activity, inhibitor		compound in water, with: [3H]NAAG 30 nM		Ki	0.007 ± 0.0004 nM
C#CCCCOC(=O)[C@]1(C)C=C(C(=O)OC(C)(C)C)C(=O)CC1	MAPK8	D-peptide displacement, fluorescence polarization				Ki	1700 ± 400 nM
COc1cc([C@@H]2c3cc4c(cc3[C@@H](OC(C)C)[C@H]3COC(=O)[C@H]23)OCO4)cc(OC)c1OC	Leishmania infantum	Alamar Blue	HepG2		reference: CC50 HepG2 over EC50 amastigotes	selectivity index	> 1.3
Cc1cc(-c2cc3nc(-c4ccc(N5CCC(F)CC5)nc4)ccc3s2)cnn1	Alpha-synuclein, PD brain aggregates (SNCA, Homo sapiens, UniProt P37840)	binding	Parkinson's disease brain homogenate	with: [3H]asyn-44 1 nM		Ki	12.1 nM
CCCCCCCCCCCCc1ccc(C(=O)NC2(C(=N)N)CC2)cc1	Sphingosine kinase 2 (SPHK2, Homo sapiens, UniProt Q9NRA0)	inhibitor, TLC				Ki	500 nM
CCOC(=O)NC(=O)/C(C#N)=C/c1ccc(C(F)(F)F)c(F)c1	Pick1 PDZ domain	binding, fluorescence polarization		with: labelled hDAT C-terminal peptide		Ki	17000 ± 2700 nM
CCCCCCCCC(CCCCCCCC=CCCCCCCCC(CCCCCCCC)C(=O)OCC1(CO)CC(=C(C)C)C(=O)O1)C(=O)OCC1(CO)CC(=C(C)C)C(=O)O1 (racemic)	Protein kinase C alpha type (PRKCA, Homo sapiens, UniProt P17252)	binding, [3H]PDBu competition		with: phosphatidylserine 100 µg/mL		Ki	173 ± 17 nM
O=C(CNc1ccc2ccccc2c1)N/N=C/c1ccc(O)cc1O	Cystic fibrosis transmembrane conductance regulator (CFTR, Homo sapiens, UniProt P13569)	apical chloride current, inhibitor	FRT cells expressing CFTR	basolateral membrane permeabilised		Ki	25000 to 50000 nM
NC(N)=NC(=O)N1CCc2c(F)ccc(-c3c(F)cc(F)cc3F)c2C1	Alpha-2C adrenergic receptor (ADRA2C, Homo sapiens, UniProt P18825)	radioligand binding				Ki	52 nM
CCc1cc2c(cc1C(C)=NN=C(C)c1cc3c(cc1CC)C(C)(C)CCC3(C)C)C(C)(C)CCC2(C)C	Bcl-2-related protein A1 (Mus musculus, UniProt Q07440, C113S/P104K)	binding, inhibitor, fluorescence polarization		with: FITC-labelled Noxa peptide		Ki	> 20300 nM
CCOC(=O)N(C)C(=O)/C(C#N)=C/c1ccc(Cl)c(Cl)c1	Pick1 PDZ domain	binding, fluorescence polarization		with: labelled hDAT C-terminal peptide		Ki	55000 ± 13000 nM
COC(=O)C1(C)C=C(C(=O)NC(C)(C)C)C(=O)CC1 (centres unmarked)	MAPK14	D-peptide displacement, fluorescence polarization				Ki	74700 ± 14000 nM
C[C@H](NC(=O)c1cc(C(=O)O)cc([C@H]2CCN[C@@H]2C(=O)O)c1)C(=O)O	Glutamate receptor ionotropic, kainate 1 (Rattus norvegicus, UniProt P22756)	binding, radioligand binding	Sf9 membranes	homomeric receptor, with: [3H]SYM2081		Ki	13300 ± 500 nM
CN(C)c1ccc(C#CCOC(=O)[C@@]2(C)C=C(C(=O)OC(C)(C)C)C(=O)CC2)cc1	MAPK14	D-peptide displacement, fluorescence polarization				Ki	3900 ± 800 nM
O=C(O)CNC(=O)c1cc(C(=O)O)cc([C@H]2CCN[C@@H]2C(=O)O)c1	NMDA receptor (rat)	binding, radioligand binding	rat cortical synaptosomes	with: [3H]CGP39653		Ki	600 nM

For quick reference, copied from above:
Structure (SMILES)	target or system	assay	system	setting	how to read	measurement	value
CCOC(=O)N(C)C(=O)/C(C#N)=C/c1ccc(Cl)c(Cl)c1	Pick1 PDZ domain	binding, fluorescence polarization		with: labelled hDAT C-terminal peptide		Ki	55000 ± 13000 nM
Cc1cc(-c2cc3nc(-c4ccc(N5CCC(F)CC5)nc4)ccc3s2)cnn1	Alpha-synuclein, PD brain aggregates (SNCA, Homo sapiens, UniProt P37840)	binding	Parkinson's disease brain homogenate	with: [3H]asyn-44 1 nM		Ki	12.1 nM
NC(N)=NC(=O)N1CCc2c(F)ccc(-c3c(F)cc(F)cc3F)c2C1	Alpha-2C adrenergic receptor (ADRA2C, Homo sapiens, UniProt P18825)	radioligand binding				Ki	52 nM
